Assay results gathered from unrelated publications.
Compare with care: the assays were run in different laboratories. Numbers after ± are the reported error.

The IC50 of C=CC(=O)Nc1cc(Nc2ncc(C(=O)OC(C)C)c(-c3cn(C)c4ccccc34)n2)c(OC)cc1N(C)CCN(C)C is reported as 0.00503 µM (NCI-H2073 ASV knock-in; cell proliferation, CellTiter-Glo; 72 h, geometric mean).
With Cc1cc(Nc2ncc(Cl)c(Nc3ccccc3S(=O)(=O)C(C)C)n2)c(OC(C)C)cc1C1CCNCC1 the IC50 was 0.028 µM (ALK fusion wild-type lines; cell viability).
For CS(=O)(=O)CCNCc1ccc(-c2ccc3ncnc(Nc4ccc(OCc5cccc(F)c5)c(Cl)c4)c3c2)o1, the IC50 was 0.155 µM (Ba/F3 expressing HER2 wild type; cell growth, inhibitor, CellTiter-Glo).
For C[C@H]1[C@H](OC(=O)CCC(=O)O)O[C@@H]2O[C@@]3(C)CC[C@H]4[C@H](C)CC[C@@H]1[C@@]24OO3, the IC50 was 3.2 to 46.7 µM (primary AML blasts, MLL-rearranged; cell viability; 96 h, MSC co-culture, range over samples).
With CSCC[C@H](NC(=O)[C@H](CCCCN)NC(=O)[C@H](CCCNC(=N)N)NC(=O)[C@H](CO)NC(=O)[C@H](Cc1c[nH]c2ccccc12)NC(=O)[C@H](CCCNC(=N)N)NC(=O)[C@H](CC(C)C)NC(=O)[C@@H](N)CCSC)C(=O)N1CCC[C@H]1C(=O)N[C@@H](CS)C(=O)N[C@H](C(=O)N[C@@H](CO)C(N)=O)C(C)C the IC50 was 1.23 ± 0.281 µM (SUP-T1; Erk phosphorylation, inhibitor, phospho flow cytometry; added: CXCL12 100 ng/mL).
COC(=O)CN=c1scc(-c2ccccc2)n1-c1ccc(C)cc1 has an IC50 of 10.8 µM (Panc 03.27; cell viability, MTT; 72 h).
C=CC(=O)N1CCC(COCC(=O)N2CCN(c3nc(-c4cnc(N)nc4C(F)F)nc(N4CCOC[C@@H]4C)n3)CC2)CC1 has an IC50 of 0.0974 µM (PC-3; western blot, measured: phospho-PKB/Akt Ser473; 2 h).
With C=CC(=O)Nc1cc(Nc2nccc(Nc3cc(Cl)c(F)cc3C(C)(C)O)n2)c(OC)cc1N1CC[C@@H](N(C)C)C1 the IC50 was 0.0174 µM (NCI-H2073 ASV knock-in; cell proliferation, CellTiter-Glo; 72 h, geometric mean).
The IC50 of CC[C@@H](C)[C@@H](NC(C)=O)C(=O)N[C@@H](CC(C)C)C(=O)N[C@@H](CCCNC(=N)N)C(=O)N[C@@H](Cc1c[nH]c2ccccc12)C(=O)N[C@@H](CO)C(=O)N[C@@H](CCCNC(=N)N)C(=O)N[C@@H](CCCCN)C(=O)N[C@@H](CC(C)C)C(=O)N1CCC[C@H]1C(=O)N[C@@H](CS)C(=O)N[C@H](C(=O)N[C@@H](CO)C(N)=O)C(C)C is reported as 17.2 ± 4.86 µM (SUP-T1; Erk phosphorylation, inhibitor, phospho flow cytometry; added: CXCL12 100 ng/mL).
CC(=O)O[C@H]1C(=O)[C@@]2(C)[C@H]([C@H](OC(=O)c3ccccc3)[C@]3(O)C[C@H](OC(=O)[C@H](O)[C@@H](NC(=O)c4ccccc4)c4ccccc4)C(C)=C1C3(C)C)[C@]1(OC(C)=O)CO[C@@H]1C[C@@H]2O has an IC50 of 0.155 ± 0.0181 µM (PC-3/TxR, resistant to compound; cell proliferation, MTS; 72 h).
For CCCCN1C[C@H](O)[C@@H](O)[C@@H](O)[C@H]1CO, the IC50 was 12.4 µM (sample D patient fibroblasts; Gb3 level lowering, LC-MS/MS, measured: Gb3 d18:1/24:1; 216 h).
For Cc1nc2ccc(Br)cc2c(=O)n1/N=C/c1ccc(C(=O)O)cc1, the IC50 was 651 ± 12.8 µM (LoVo; cytotoxicity, LDH release; 24 h, 50% viability reduction).
CN1CCC(NC2CCc3[nH]c4c(C(N)=O)ccc(-c5ccccc5Cl)c4c3C2)CC1 (stereo not drawn) has an IC50 of 0.0216 µM (B16-F10; cell growth; 96 h).
The IC50 of S=C(S)N1CCCC1 is reported as 0.13 µM (differentiated LUHMES MT1G::HiBiT-G2 neurons; cell viability; 3D neurospheres; 24 h).
C=CC(=O)Nc1cc(Nc2nccc(-c3cn(C)c4ccccc34)n2)c(OC)cc1N(C)CCN(C)C gave an IC50 of 0.0137 ± 0.00091 µM (Ba/F3 EGFR L861Q; cell proliferation, CellTiter-Glo; 72 h).
CC[C@H](C)[C@H](N)C(=O)N[C@H](CC(C)C)C(=O)N[C@@H](CCCNC(=N)N)C(=O)N[C@@H](Cc1c[nH]c2ccccc12)C(=O)N[C@@H](CO)C(=O)N[C@@H](CCCNC(=N)N)C(=O)N[C@@H](CCCCN)C(=O)N[C@@H](CC(C)C)C(=O)N1CCC[C@H]1C(=O)N[C@@H](CS)C(=O)N[C@H](C(=O)N[C@@H](CO)C(N)=O)C(C)C has an IC50 of > 100 µM (SUP-T1; Erk phosphorylation, inhibitor, phospho flow cytometry; added: CXCL12 100 ng/mL).
C[C@H](Nc1ccc2c(c1)OCCn1cc(N3C(=O)OC[C@H]3C(F)F)nc1-2)C(N)=O has an IC50 of 10 µM (BFTC-909; growth rate inhibition, CellTiter-Glo; 120 h).
CCOc1cc2ncc(C#N)c(Nc3ccc(OCc4ccccn4)c(Cl)c3)c2cc1NC(=O)/C=C/CN(C)C gave an IC50 of 0.0006 µM (Ba/F3 expressing HER2 wild type; cell growth, inhibitor, CellTiter-Glo).
For CS(=O)(=O)CCNCc1ccc(-c2ccc3ncnc(Nc4ccc(OCc5cccc(F)c5)c(Cl)c4)c3c2)o1, the IC50 was 2.65 ± 0.3 µM (AC16 cardiomyocytes; mitochondrial membrane potential decrease; 1 h).
O=C(O)COCC(=O)O gave an IC50 of 8440 µM (iPSC-derived hepatocytes B2; cell viability; 72 h, differentiation day 23).
The IC50 of COC(=O)CN=c1scc(-c2ccccc2)n1-c1ccc(Cl)cc1 is reported as 27.4 µM (Panc 03.27; cell viability, MTT; 72 h).
With COc1ccc(F)cc1C(=O)NCc1ccc(-c2nn([C@@H](C)C(F)(F)F)c(N)c2C(N)=O)cc1 the IC50 was 0.0045 ± 0.0016 µM (Rec1; measured: IL-8; 24 h).
The IC50 of COc1ccc2c(c1)NC(=O)CN2c1nc(C)nc2c1CCC2 is reported as 0.001 to 0.004 µM (PDX-derived, HCI-10-Luc2, taxane refractory; cell growth, MTS).
CC1=C(C(=O)OC(C)C)C(c2cccc([N+](=O)[O-])c2)C(C(=O)OC2CN(C(c3ccccc3)c3ccccc3)C2)=C(N)N1 (stereo not drawn) gave an IC50 of 2.56 ± 0.44 µM (AC16 cardiomyocytes; mitochondrial membrane potential decrease; 1 h).
Cc1c(C)c2c(c(C)c1O)CCC(C)(COc1ccc(CC3SC(=O)NC3=O)cc1)O2 (stereo not drawn) has an IC50 of 27 µM (iPSC-derived hepatocytes B2; cell viability; 24 h, differentiation day 23).
CSCC[C@H](NC(=O)[C@H](CCCCN)NC(=O)[C@H](CCCNC(=N)N)NC(=O)[C@H](CO)NC(=O)[C@H](Cc1c[nH]c2ccccc12)NC(=O)[C@H](CCCNC(=N)N)NC(=O)[C@H](CC(C)C)NC(=O)[C@H](N)Cc1ccccc1)C(=O)N1CCC[C@H]1C(=O)N[C@@H](CS)C(=O)N[C@H](C(=O)N[C@@H](CO)C(N)=O)C(C)C gave an IC50 of > 100 µM (SUP-T1; Erk phosphorylation, inhibitor, phospho flow cytometry; added: CXCL12 100 ng/mL).
Cc1c(C(=O)O)ccc2c3n(nc12)[C@@H]1[C@H](C3)N(CC2CC2)[C@@]2(C(=O)Nc3cc(Cl)ccc32)[C@H]1c1cccc(Cl)c1F has an IC50 of > 2 µM (U-2 OS (MDM2 non-amplified); cell proliferation, alamarBlue; 120 h).

A few entries again:
With CSCC[C@H](NC(=O)[C@H](CCCCN)NC(=O)[C@H](CCCNC(=N)N)NC(=O)[C@H](CO)NC(=O)[C@H](Cc1c[nH]c2ccccc12)NC(=O)[C@H](CCCNC(=N)N)NC(=O)[C@H](CC(C)C)NC(=O)[C@@H](N)CCSC)C(=O)N1CCC[C@H]1C(=O)N[C@@H](CS)C(=O)N[C@H](C(=O)N[C@@H](CO)C(N)=O)C(C)C the IC50 was 1.23 ± 0.281 µM (SUP-T1; Erk phosphorylation, inhibitor, phospho flow cytometry; added: CXCL12 100 ng/mL).
CC[C@H](C)[C@H](N)C(=O)N[C@H](CC(C)C)C(=O)N[C@@H](CCCNC(=N)N)C(=O)N[C@@H](Cc1c[nH]c2ccccc12)C(=O)N[C@@H](CO)C(=O)N[C@@H](CCCNC(=N)N)C(=O)N[C@@H](CCCCN)C(=O)N[C@@H](CC(C)C)C(=O)N1CCC[C@H]1C(=O)N[C@@H](CS)C(=O)N[C@H](C(=O)N[C@@H](CO)C(N)=O)C(C)C has an IC50 of > 100 µM (SUP-T1; Erk phosphorylation, inhibitor, phospho flow cytometry; added: CXCL12 100 ng/mL).
COC(=O)CN=c1scc(-c2ccccc2)n1-c1ccc(C)cc1 has an IC50 of 10.8 µM (Panc 03.27; cell viability, MTT; 72 h).
